# Results collected from several papers.
# ± gives the spread as reported.
SMILES,test,test system,setting,how to read,endpoint,value
CCCCCC(=O)OCn1cc(F)c(=O)[nH]c1=O,,HCl or phosphate buffer,"80 µg/mL, pH 7.4, 37 °C, chemical stability",,half-life,112 ± 11.9 h
Nc1nc(-n2nnc3c2CCC2C(CO)C2CC3)nc2c1ncn2C1OC(CO)C(O)C1O (mixture of isomers),,methanol,,,absorption maximum,261 nm
Cc1ccc(Oc2ccc(-c3ccn4c(CC5CC5)nnc4c3C(F)(F)F)cc2F)c(C)n1,,"male Sprague-Dawley rat, brain","subcutaneous, 10 mg/kg, 4 h, single dose",,concentration,61 ng/g
C(=N\Nc1nnc(N/N=C/c2ccco2)c2ccccc12)/c1ccco1,haemolysis,human,"100 mM, 45 min",,haemolysis,19 to 35%
[18F]CCn1cc(COc2ccc(-c3nncnn3)cc2)nn1,radio-TLC,"mouse, plasma",30 min,,intact tracer,90%
Nc1ncnc2c1nc(-n1nnc3c1CCC1C(CO)C1CC3)n2C1OC(CO)C(O)C1O (mixture of isomers),,methanol,,,absorption maximum,270 nm
NCCCN1CC(=O)N(Cc2ccccc2)CC(=O)N(CCCN)CC(=O)N(Cc2ccccc2)CC(=O)N(CCCN)CC(=O)N(Cc2ccccc2)CC(=O)N(CCCN)CC(=O)N(Cc2ccccc2)CC(=O)N(CCCN)CC(=O)N(Cc2ccccc2)CC1=O,RP-HPLC C18,,acetonitrile gradient,,retention time,~9 min
Clc1nnc(N/N=C/c2ccc(Br)cc2)c2ccccc12,haemolysis,human,"100 mM, 45 min",,haemolysis,11.1%
CCCCn1ccn2c(-c3ccc(Oc4ccnc(C)c4)c(F)c3)c(C)nc2c1=O,,"Sprague Dawley rat male, brain","oral, 10 mg/kg, 1 h",,brain concentration,405 ng/g
O=C(CCc1cn(CCOCCOCCOCC[18F])nn1)Nc1ccc(-c2nnc(-c3ccccn3)nn2)nc1,PET,"BALB/c nude mouse, LS174T xenograft, heart","intravenous, 1 h, with: saline instead of antibody",,tissue uptake,1.5 ± 0.2 %ID/g
Cc1cc(Oc2ccc(-c3ccn4c(CC5CC5)nnc4c3C(F)(F)F)cc2F)ccn1,,human liver microsomes,"5 µM, 15 min",,compound metabolized,14%
NCCC(=O)N1Cc2ccccc2-c2c(nnn2-c2cn(C3OC(CO)C(O)C3O)c(=O)[nH]c2=O)-c2ccccc21 (mixture of isomers),,methanol,,,absorption maximum,276 nm
COc1ccc(CNc2ccc(-c3ccn4c(CC5CC5)nnc4c3C(F)(F)F)cc2F)cn1,,"male Sprague-Dawley rat, brain","subcutaneous, 10 mg/kg, 2 h, single dose",,concentration,478 ng/g
O[C@@H]1[C@@H](O)[C@H](n2cc(COc3ccc(-c4nncnn4)cc3)nn2)O[C@H](C[18F])[C@H]1O,radio-TLC,"mouse, plasma",30 min,,intact tracer,76%
CC(C)C[C@@H]1NC(=O)[C@H](CCCN)NC(=O)[C@H](C(C)C)NC(=O)[C@@H]2CCCN2C(=O)[C@@H](Cc2ccccc2)NC(=O)[C@H](CC(C)C)NC(=O)[C@H](CCCN)NC(=O)[C@H](C(C)C)NC(=O)[C@@H]2CCCN2C(=O)[C@@H](Cc2ccccc2)NC1=O,RP-HPLC C18,,acetonitrile gradient,,retention time,8.51 min
Oc1ccccc1/C=N/Nc1nnc(N/N=C/c2ccccc2O)c2ccccc12,haemolysis,human,"100 mM, 45 min",,haemolysis,19 to 35%
[18F]CCOCCOCCOCCn1cc(COc2ccc(-c3nncnn3)cc2)nn1,radio-TLC,"mouse, plasma",30 min,,intact tracer,37%
CCCCn1ccn2c(-c3ccc4[nH]ccc4c3)c(C)nc2c1=O,,"Sprague Dawley rat male, brain","oral, 10 mg/kg, 2 h",,brain concentration,10 ng/g
CC(=O)NC(Cc1c[nH]c2ccccc12)C(=O)NC(CCC(=O)C=[N+]=[N-])C(=O)O (stereo not drawn),,"C57BL/6 CES1-/- mouse EL4 tumour, tumour and intestinal tissue","subcutaneous, 2.6 mg/kg of prodrug, DON prodrug dosed",baseline: intestinal tissue over tumour,concentration ratio,15 fold
N#Cc1c(-c2ccc(OCC3CC3)c(Cl)c2)ccn2c(CC(F)(F)F)cnc12,,rat liver microsomes,"5 µM, 15 min",,compound metabolized,28%
O=[N+]([O-])c1cccc(/C=N/Nc2nnc(N/N=C/c3cccc([N+](=O)[O-])c3)c3ccccc23)c1,haemolysis,human,"1 mM, 45 min",,haemolysis,8.7%
